# Measurements gathered from unrelated publications.
# A part holds a random share of what one study measured.

# Study 1 — technique: protein binding microarray; form: double-stranded DNA, one strand shown; sample: in vitro; tested at: not given; relative to: not given; reading: higher = stronger binding
# Target: Histone acetyltransferase KAT6A, winged helix 2, GST fusion (KAT6A, Homo sapiens, UniProt Q92794, residues 85-181)
# Notes: 8-mer, flanks averaged, mean of 2 arrays, mostly near background
# Target sequence (chain): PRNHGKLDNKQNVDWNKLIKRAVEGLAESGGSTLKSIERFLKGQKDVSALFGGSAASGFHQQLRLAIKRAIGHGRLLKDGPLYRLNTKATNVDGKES
Strand,E-score
CGTTATTC,-0.0761
GAGATTCC,-0.0951
CGCAATCC,0.153
GAGGCAGA,0.0456
CATGACTA,-0.209
GAGTTAGC,-0.0917
ATAAAGGG,-0.0168
GATATTCA,-0.124
CCACGGGG,0.16
ACGCCCTC,0.057
GCGTTTAC,-0.199
CGGGGGTC,0.0176
AGTAGGAC,-0.0265
AGACCAGG,-0.0626
ATGATACC,0.135
ATAGAAGA,-0.18
CGGATTAG,0.0153
ATATAAGG,-0.00171
CCGGCTAC,0.101
TCAGTGGA,0.00115
CGTCCGCC,0.193
CAACGAGA,0.0713
TATGCAAA,-0.0408
AAATATCG,-0.077
AATCCATT,-0.0443

# Study 2 — technique: protein-binding microarray; form: double-stranded DNA, one strand shown; sample: in vitro; tested at: 0.8 µM; notes: whole 60-bp probe, no competitor; reading: higher = stronger binding; shared flanks, not repeated: … GTCTTGATTCGCTTGACGCTGCTG
# Target: Centromere-binding protein 1, full length, N-terminal tag (CBF1, Saccharomyces cerevisiae, UniProt P17106, residues 1-351)
# Sequence of UniProt P17106 (whole entry, looked up): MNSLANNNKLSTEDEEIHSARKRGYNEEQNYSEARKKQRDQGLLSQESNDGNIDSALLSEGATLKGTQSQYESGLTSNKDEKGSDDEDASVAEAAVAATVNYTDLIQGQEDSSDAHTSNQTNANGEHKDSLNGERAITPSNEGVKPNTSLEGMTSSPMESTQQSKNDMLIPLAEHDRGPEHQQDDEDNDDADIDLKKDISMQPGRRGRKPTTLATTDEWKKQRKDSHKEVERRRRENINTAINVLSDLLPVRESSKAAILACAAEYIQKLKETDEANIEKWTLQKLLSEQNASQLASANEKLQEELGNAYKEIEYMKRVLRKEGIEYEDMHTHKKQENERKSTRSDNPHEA
Strand,fluorescence intensity [a.u.]
TGTACGAAGCTATCGTGGGTGACTATAGTAGTTAGG,508
GAAAAACAATAAACGTGGGTGATGAAGACAAGATAG,652
CTATGAAAGTTTGCGAACGTGAAGTAAAACTGCTTC,559
TGTACGAAGCTATGTGACTACAATATAGTAGTTAGG,550
GAACTTTTGGGTTATCACGTTCAACAAGGAACTTAG,922
CTATCATATCAAATTCACATCAGACTTCAATTTTTC,544
GAAGCGATTGACAATGACGTCATCAGTGCATAGTAG,519
CTAAATATGTACGGTCACGCCAATTCTTTTTCTTTC,847
CTACAAATAATTAAGCATGTGGAAAAAGAAGGGTTC,659
GAAGGGTCAACAGATCACGAGCCAATTTGAATTTAG,1880
GAACGAATAAATAGCAACGTGAATAAGTAAGTCTAG,640
GAACCGAGAACGCGTAGCGTGATGATAATGGTGTAG,629
GAAGTTAGATAGGGTGGTGTGTGGTGTGTGGGTTAG,529
CTATTACTTGGCAAACACGTTGGTTGGGAAAAGTTC,621
CTAATTATCTTCAATGTCATCACGTACTTAATTTTC,785
GAATAGTCCGTATGTCATGTGCTACGGCAAGCGTAG,1800
CTATGGTTATAAGGTGGTGTAAAGTAATGTAATTTC,535
GAATTGTGTGGAACTGACGTGGACCTTTTCTGTTAG,521
CTAAATGGCTGTGGTCACATCAGGACCTACGAATTC,540
CTATGTGCACAAGAATACGTGTGTGTGCGTAAGTTC,520
CTACCTTAAATCGTGAACGTGGAGATGATTATTTTC,582
CCTAACTACTATAAAGGTATCACATAGCTTCGTACA,558
GAATTCGTCATCAGTCATCTGACGTACGGCTTTTAG,1090
GAATCACATGATATACGCGTGACTTTTTTTTTATAG,4860

# Study 3 — technique: aptamer microarray, sandwich; form: DNA with 2'F-ANA; sample: in vitro; tested at: 200 nM; with: Cy3 exosite-II aptamer, 400 nM; reading: higher = stronger binding; strand: GGTTGGTGTGGTTGG
# Target: Prothrombin, mature alpha-thrombin (F2, Homo sapiens, UniProt P00734)
# Notes: whole 15-mer aptamer, many near background
Modification,mean fluorescence intensity
2'F-ANA at 3 6 10 12 14 15,353 a.u.
2'F-ANA at 2 5 6 7 11 12 13 14,52.4 a.u.
2'F-ANA at 5 6 7 8 9 10 15,47.5 a.u.
2'F-ANA at 1 2 3 6 7 11 15,156 a.u.
2'F-ANA at 1 4 5 7 8 10 12 13 15,46.4 a.u.
2'F-ANA at 6 7 8 9 11,444 a.u.
2'F-ANA at 2 5 6 7 8 9 10 11 13 14 15,50 a.u.
2'F-ANA at 3 4 7 12 13,833 a.u.
2'F-ANA at 1 4 6 7 11 13 14 15,51 a.u.
2'F-ANA at 2 5 9 15,93.2 a.u.
2'F-ANA at 2 3 6 8 10 13 15,259 a.u.
2'F-ANA at 1 2 6 8 10 11 12 14 15,52.2 a.u.
2'F-ANA at 1 4 7 8 9 10 14,245 a.u.
2'F-ANA at 1 2 3 4 6 8 9 10 11 12 13 14,62.7 a.u.
2'F-ANA at 1 3 6 7 8 10 14 15,65.2 a.u.
2'F-ANA at 3 5 6 7 8 10 12 13,69.9 a.u.
2'F-ANA at 2 3 4 6 8 9 12 14,255 a.u.
2'F-ANA at 3 4 5 7 8 11 14,64.6 a.u.
2'F-ANA at 2 5 8 10 13,46.3 a.u.
2'F-ANA at 2 3 4 8 11 14 15,282 a.u.
2'F-ANA at 1 2 7 9 12 13 15,351 a.u.
2'F-ANA at 1 2 4 5 6 7 8 9 10 11 14 15,57.6 a.u.
2'F-ANA at 4 5 8 9 10 13 15,46 a.u.

# Study 4 — technique: protein-binding microarray; form: double-stranded DNA, one strand shown; sample: in vitro; tested at: 250 nM; notes: 60-bp whole probe; with: salmon DNA 0.4 mg/ml; relative to: random background probes; reading: higher = stronger binding; shared flanks, not repeated: GCCTAGCAC … GTCTTGATTCGCTTGACGCTGCTG
# Target: Interferon regulatory factor 5, full length, phosphomimetic (IRF5, Homo sapiens, UniProt Q13568-2, residues 1-514, K96S/S451D/S453D/S456D/S462D)
Strand,log fluorescence
GACGTTTTCAGTATCGAGACGTGCTAG,4.6 z-score
GACGGTCCCCTTCTCCTGACGTGCTAG,-0.308 z-score
GACGGTTTCGGCATCGGGACGTGCTAG,5.91 z-score
TTAGATTGCAGTTCCGATTAGTGCTAG,0.73 z-score
TCATGTTGCAGACTCGAACTGTGCTAG,0.0711 z-score
GACGAACTGAGAGTGGAGACGTGCTAG,-0.427 z-score
GACGATCTCGGGTATCGAGACGTGCTA,0.446 z-score
CTCACCGCCAACCCAGTTCCGTGCTAG,-0.168 z-score
TGTACTCTCTCCATGTGTTTGTGCTAG,0.35 z-score
TCAGGTTTCAGATGCGTACTGTGCTAG,1.4 z-score
GACGGTATCATTCTCCTGACGTGCTAG,1.07 z-score
TCATGTCTTAGATTCCTACTGTGCTAG,0.361 z-score
TACGGTATCGGACTGGGGACGTGCTAG,1.06 z-score
GACGATTTCAGGTCCGAGACGTGCTAG,0.408 z-score
TTAGGTATCGGTCTCGGTTCGTGCTAG,6.82 z-score
GACGGACTGGGACTGGGCACGTGCTAG,-0.614 z-score
GACGGTATCGGGTTTCCGGACGTGCTA,3.05 z-score
GACGATTTTAGTATCGAGACGTGCTAG,3.37 z-score

# Study 5 — technique: universal PBM; form: double-stranded DNA, one strand shown; sample: in vitro; tested at: not given; reading: higher = stronger binding
# Target: Sal-like protein 4, full length isoform B (SALL4, Homo sapiens, UniProt Q9UJQ4-2, residues 1-616)
# Notes: 8-mer, flanks averaged, mean of replicates
Strand,E-score
CGTAAGGC,-0.0728
AGGGCCGA,-0.2
GCCTTTCC,-0.0124
GTAAGAAA,0.0294
CTATCTAA,0.13
ACTGATGA,0.15
GCTTACAC,-0.234
TAAGGTGA,0.037
AAAGCGTC,-0.117
CGCGCATC,-0.064
TACCGGGA,-0.0761
AATGGGTG,0.0532
ATACTCTG,0.129
GAACCAGC,-0.13
ACCTATAT,0.305
ATAAGCCA,0.178
AATATTGG,0.321
GCATCAAC,-0.0453
CTGCACAA,0.0626
CAAAGCCC,-0.256
AGCCTTAG,-0.0484
ACCAGACG,-0.101
ATCAACAT,0.281
GATTATAC,0.163
CTGTTCTC,-0.175

# Excerpt of the above (study 1):
Strand,E-score
GAGATTCC,-0.0951
AGACCAGG,-0.0626
TCAGTGGA,0.00115
GCGTTTAC,-0.199
ATATAAGG,-0.00171
GATATTCA,-0.124
CGGATTAG,0.0153
TATGCAAA,-0.0408
CAACGAGA,0.0713
AATCCATT,-0.0443
CGGGGGTC,0.0176
CGTTATTC,-0.0761
CATGACTA,-0.209
ATGATACC,0.135
AAATATCG,-0.077
GAGTTAGC,-0.0917
AGTAGGAC,-0.0265
CGCAATCC,0.153
ACGCCCTC,0.057
